# Measurements gathered from unrelated publications.
# Each line is one published result; not all experiments were run side by side. “And” joins repeats or separate records; there may be more than shown. Numbers after ± are the reported error.
# OPRK1: Kappa-type opioid receptor (OPRK1, Homo sapiens, UniProt P41145)
# Sequence of UniProt P41145 (whole entry, looked up): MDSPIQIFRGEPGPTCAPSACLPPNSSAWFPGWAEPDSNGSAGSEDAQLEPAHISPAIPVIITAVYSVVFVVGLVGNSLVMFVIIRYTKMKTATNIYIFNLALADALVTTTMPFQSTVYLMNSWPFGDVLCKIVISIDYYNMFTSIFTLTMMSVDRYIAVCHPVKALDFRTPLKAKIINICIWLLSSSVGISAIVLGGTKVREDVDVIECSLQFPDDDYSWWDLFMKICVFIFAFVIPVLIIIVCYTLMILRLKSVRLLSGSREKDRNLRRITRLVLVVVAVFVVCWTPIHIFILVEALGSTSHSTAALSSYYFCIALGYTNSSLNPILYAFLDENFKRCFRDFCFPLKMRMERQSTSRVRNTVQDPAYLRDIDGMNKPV
# PYR1: Abscisic acid receptor PYR1 (PYR1, Arabidopsis thaliana, UniProt O49686)
# Sequence of UniProt O49686 (whole entry, looked up): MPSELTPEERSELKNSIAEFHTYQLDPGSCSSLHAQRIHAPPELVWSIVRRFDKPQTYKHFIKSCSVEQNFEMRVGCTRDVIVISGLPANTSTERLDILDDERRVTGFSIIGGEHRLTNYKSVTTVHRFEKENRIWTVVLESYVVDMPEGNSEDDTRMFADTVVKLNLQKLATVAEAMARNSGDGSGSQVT
# GABA-A receptor; alpha-5/beta-3/gamma-2: GABA-A receptor; alpha-5/beta-3/gamma-2 (Homo sapiens, UniProt P18507+P28472+P31644)
# Sequence of UniProt P28472 (whole entry, looked up): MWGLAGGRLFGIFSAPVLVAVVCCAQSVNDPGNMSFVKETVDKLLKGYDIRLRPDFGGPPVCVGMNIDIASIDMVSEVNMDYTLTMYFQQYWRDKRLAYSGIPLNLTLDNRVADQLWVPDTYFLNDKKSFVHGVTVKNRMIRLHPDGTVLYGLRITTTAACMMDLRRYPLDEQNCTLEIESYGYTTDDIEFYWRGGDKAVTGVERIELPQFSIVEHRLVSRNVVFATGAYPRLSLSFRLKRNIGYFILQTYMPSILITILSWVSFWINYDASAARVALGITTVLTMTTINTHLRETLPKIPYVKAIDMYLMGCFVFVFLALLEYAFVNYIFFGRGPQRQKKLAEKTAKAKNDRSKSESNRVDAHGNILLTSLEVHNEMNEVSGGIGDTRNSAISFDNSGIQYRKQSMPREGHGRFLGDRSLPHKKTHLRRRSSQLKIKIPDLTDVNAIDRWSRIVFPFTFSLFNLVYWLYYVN
# Sequence of UniProt P31644 (whole entry, looked up): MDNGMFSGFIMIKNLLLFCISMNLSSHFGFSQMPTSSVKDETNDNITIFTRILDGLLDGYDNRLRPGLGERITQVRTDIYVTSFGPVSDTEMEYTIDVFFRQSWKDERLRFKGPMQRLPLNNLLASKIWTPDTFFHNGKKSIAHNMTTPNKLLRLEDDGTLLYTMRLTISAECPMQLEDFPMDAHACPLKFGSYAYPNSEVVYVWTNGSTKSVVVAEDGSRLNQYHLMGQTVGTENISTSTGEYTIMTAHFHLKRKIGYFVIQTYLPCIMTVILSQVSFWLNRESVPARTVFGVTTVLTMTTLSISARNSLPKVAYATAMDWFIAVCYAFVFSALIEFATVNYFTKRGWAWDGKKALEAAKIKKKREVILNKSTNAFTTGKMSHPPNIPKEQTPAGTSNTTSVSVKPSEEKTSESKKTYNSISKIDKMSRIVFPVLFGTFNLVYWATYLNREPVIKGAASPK
# Sequence of UniProt P18507 (whole entry, looked up): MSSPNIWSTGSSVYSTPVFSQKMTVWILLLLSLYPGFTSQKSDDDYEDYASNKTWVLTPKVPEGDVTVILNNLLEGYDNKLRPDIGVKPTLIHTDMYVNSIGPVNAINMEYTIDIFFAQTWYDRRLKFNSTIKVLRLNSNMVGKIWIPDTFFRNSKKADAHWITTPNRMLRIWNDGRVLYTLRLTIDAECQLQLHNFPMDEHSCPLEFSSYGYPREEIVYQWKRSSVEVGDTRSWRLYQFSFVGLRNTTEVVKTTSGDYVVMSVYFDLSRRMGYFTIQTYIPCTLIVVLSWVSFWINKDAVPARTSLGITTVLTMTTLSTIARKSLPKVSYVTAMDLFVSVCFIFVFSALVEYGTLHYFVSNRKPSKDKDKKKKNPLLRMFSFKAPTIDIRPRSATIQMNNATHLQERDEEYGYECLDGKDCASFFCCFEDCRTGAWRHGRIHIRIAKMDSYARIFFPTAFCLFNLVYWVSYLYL
# DRD2: D(2) dopamine receptor (DRD2, Homo sapiens, UniProt P14416)
# Sequence of UniProt Q8N884 (whole entry, looked up): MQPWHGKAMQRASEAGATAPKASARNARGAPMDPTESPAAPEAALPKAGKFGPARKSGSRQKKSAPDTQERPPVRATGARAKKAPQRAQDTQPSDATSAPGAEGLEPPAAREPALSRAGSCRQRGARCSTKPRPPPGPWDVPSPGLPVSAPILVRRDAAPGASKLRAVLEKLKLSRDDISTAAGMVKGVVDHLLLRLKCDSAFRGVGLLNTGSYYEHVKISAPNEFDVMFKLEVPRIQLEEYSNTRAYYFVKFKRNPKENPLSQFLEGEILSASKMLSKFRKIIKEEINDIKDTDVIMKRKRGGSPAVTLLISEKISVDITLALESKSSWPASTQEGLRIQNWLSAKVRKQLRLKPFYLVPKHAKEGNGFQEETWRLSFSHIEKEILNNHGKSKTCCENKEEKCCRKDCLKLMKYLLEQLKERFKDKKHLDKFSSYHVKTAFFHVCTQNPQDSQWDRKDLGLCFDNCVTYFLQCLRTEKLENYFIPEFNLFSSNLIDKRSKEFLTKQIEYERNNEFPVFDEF
# Sequence of UniProt P14416 (whole entry, looked up): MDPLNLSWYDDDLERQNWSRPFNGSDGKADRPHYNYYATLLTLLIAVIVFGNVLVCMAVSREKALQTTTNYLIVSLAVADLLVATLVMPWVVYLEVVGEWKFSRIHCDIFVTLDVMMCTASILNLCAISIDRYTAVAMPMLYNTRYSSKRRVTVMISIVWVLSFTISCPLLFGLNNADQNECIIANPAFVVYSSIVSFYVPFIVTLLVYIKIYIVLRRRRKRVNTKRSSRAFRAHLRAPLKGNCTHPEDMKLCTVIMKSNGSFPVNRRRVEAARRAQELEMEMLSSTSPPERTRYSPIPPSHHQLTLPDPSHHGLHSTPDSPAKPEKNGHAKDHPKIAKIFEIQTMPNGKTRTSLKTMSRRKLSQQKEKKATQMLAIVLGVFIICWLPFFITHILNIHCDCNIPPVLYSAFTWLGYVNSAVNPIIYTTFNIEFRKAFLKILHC
# Sequence of UniProt Q9NQG6 (whole entry, looked up): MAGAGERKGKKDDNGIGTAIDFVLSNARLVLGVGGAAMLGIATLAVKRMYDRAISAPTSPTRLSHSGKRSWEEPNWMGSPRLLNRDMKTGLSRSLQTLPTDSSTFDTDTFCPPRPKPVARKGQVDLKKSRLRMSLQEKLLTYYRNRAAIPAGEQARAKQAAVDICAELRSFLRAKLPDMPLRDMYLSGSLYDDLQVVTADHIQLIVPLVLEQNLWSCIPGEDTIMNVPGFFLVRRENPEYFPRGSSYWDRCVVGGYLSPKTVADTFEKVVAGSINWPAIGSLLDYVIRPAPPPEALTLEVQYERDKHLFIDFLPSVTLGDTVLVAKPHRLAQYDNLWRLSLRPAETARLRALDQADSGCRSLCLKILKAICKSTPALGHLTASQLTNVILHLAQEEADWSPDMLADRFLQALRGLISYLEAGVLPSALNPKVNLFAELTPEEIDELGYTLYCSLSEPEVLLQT
# Sequence of UniProt P35414 (whole entry, looked up): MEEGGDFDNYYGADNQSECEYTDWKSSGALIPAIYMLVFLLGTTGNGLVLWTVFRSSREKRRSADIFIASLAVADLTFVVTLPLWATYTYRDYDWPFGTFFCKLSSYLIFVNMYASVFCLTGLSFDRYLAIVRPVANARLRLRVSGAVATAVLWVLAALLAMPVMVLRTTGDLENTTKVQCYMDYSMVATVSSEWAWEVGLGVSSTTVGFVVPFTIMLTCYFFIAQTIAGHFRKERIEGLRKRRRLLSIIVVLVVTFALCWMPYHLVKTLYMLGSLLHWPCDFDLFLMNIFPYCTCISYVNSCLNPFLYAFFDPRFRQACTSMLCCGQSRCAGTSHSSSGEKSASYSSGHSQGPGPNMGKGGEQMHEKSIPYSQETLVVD
# Sequence of UniProt P34995 (whole entry, unmodified, looked up): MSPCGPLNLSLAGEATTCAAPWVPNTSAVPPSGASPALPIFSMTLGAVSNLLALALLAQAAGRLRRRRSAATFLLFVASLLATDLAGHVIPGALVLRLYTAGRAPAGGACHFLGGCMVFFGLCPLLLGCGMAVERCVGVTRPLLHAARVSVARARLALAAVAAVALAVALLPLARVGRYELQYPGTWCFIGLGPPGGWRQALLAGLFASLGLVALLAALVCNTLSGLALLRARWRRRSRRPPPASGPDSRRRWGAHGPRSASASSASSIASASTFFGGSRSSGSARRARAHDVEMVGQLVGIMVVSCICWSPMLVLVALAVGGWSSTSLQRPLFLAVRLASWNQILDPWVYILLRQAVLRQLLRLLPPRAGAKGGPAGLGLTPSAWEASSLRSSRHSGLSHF
# Sequence of UniProt Q9NXA8 (whole entry, looked up): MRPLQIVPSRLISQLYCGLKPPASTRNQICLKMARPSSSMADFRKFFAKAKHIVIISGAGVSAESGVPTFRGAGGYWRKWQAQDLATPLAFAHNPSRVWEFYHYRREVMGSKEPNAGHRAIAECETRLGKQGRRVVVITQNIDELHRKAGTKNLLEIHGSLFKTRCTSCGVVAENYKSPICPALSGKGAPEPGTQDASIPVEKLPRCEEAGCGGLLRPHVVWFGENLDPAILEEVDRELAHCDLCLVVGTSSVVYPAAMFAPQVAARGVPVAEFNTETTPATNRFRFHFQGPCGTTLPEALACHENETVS
Compound,target or system,assay,test system,setting,how to read,measurement,value
COC(=O)C1=C2Nc3ccc(Br)cc3[C@@]23CCN2C[C@@](O)([C@@H](C)O)[C@@H]1C[C@H]23,OPRK1,"cAMP inhibition, agonist, HitHunter",CHO-K1,added: forskolin,,EC50,> 10000 nM
O=C(Cc1cc(C2CC2)c(-n2cc(CNC(=O)c3ccc4cccc(F)c4n3)nn2)c(C2CC2)c1)NC1(C(=O)O)CCCCC1,PYR1,"phosphatase activity recovery, antagonist",,"added: HAB1, ABA 5000 nM",,EC50,116 ± 22 nM
NC(=O)c1cnc2[nH]ccc2c1N[C@@H]1[C@@H]2CC3C[C@H]1C[C@@](O)(C3)C2,,"flow cytometry, refers to: memory T cells (CD3+ CD45RA-)","Japanese healthy subjects, peripheral blood","oral, 100 mg twice daily, day 7",,change from baseline,-0.02%
O=C(Cc1cc(C2CC2)c(-n2cc(CNC(=O)c3ccc(Cl)s3)nn2)c(C2CC2)c1)NC1(C(=O)O)CCCCC1,PYR1,"phosphatase activity recovery, antagonist",,"added: HAB1, ABA 5000 nM",,EC50,137 ± 15 nM
CCCCC[C@H](O)/C=C/[C@H]1[C@H](O)CC(=O)[C@@H]1C/C=C\CCCC(=O)O,"PTGER1 (Homo sapiens, UniProt P34995, S306A)","IP1 accumulation, agonist",AD293,EP1 S306A mutant,,EC50,3.99 nM
Cc1nn(-c2nc3c(F)cc(F)cc3s2)c(O)c1C(c1cccc(C(F)(F)F)c1)c1c(C)nn(-c2nc3c(F)cc(F)cc3s2)c1O,"Cyclic GMP-AMP synthase, catalytic domain; with DNA (CGAS, Homo sapiens, UniProt Q8N884)","cGAS phase separation, inhibitor",,,,EC50,4410 nM and 4900 nM
O=C(O)C1=CCNCC1,GABA-A receptor; alpha-5/beta-3/gamma-2,"chloride current, agonist, electrophysiology",HEK293 expressing GABAA α5β3γ2,,,EC50,9800 nM
NC(=O)c1ccc[n+]([C@@H]2O[C@H](CO)[C@@H](O)[C@H]2O)c1,"SIRT5 (Homo sapiens, UniProt Q9NXA8)","probe labelling, activator",,"added: probe A 25 µM, NAD+ 500 µM",,EC50,210000 nM
CCn1c(-c2nc3cc(C(=O)N4CCC[C@@H](N)C4)cc(OC)c3n2C)cc2cccnc21,OPRK1,"G protein activation, agonist, GTPγS binding",,,,EC50,> 100000 nM
CCCCCCCCCCCCCCCC(=O)SCCNC(=O)CCNC(=O)C(O)C(C)(C)COP(=O)(O)OP(=O)(O)OCC1OC(n2cnc3c(N)ncnc32)C(O)C1OP(=O)(O)O (stereo not shown),"Mitochondrial dynamics protein MIEF1 (MIEF1, Homo sapiens, UniProt Q9NQG6)","MANT-ADP fluorescence decrease, MANT-ADP competition",,"target 1 µM, added: MANT-ADP 300 nM",,EC50,2000 nM
Cc1ccc(C(=O)NCc2cn(-c3c(C4CC4)cc(CC(=O)NC4(C(=O)O)CCCCC4)cc3C3CC3)nn2)o1,PYR1,"phosphatase activity recovery, antagonist",,"added: HAB1, ABA 5000 nM",,EC50,485 ± 65 nM
CC(C)C[C@H](NC(=O)C[C@H](O)[C@H](CC(C)C)NC(=O)[C@H](Cc1c[nH]cn1)NC(=O)CNC(=O)[C@@H](NC(=O)[C@H](C)NC(=O)[C@H](Cc1c[nH]c2ccccc12)NC(=O)[C@H](CCC(N)=O)NC(=O)[C@@H](Cc1ccccc1)NC(=O)COCCOCCNC(=O)CCC(C(=O)O)N1CCN(CC(=O)O)CCN(CC(=O)O)CCN(CC(=O)O)CC1)C(C)C)C(N)=O (stereo partly shown) [lutetium-177 labelled],,,"female BALB/c nu/nu mice, muscle","intravenous, 100 pmol, 24 h, added: PA 300 µg",,tissue uptake,0.01 %ID/g
CC(C)n1ncc2c(C(=O)NCC3(C)CNC3)cc(C3CC3)nc21,enterovirus A71,,Tainan/4643/1998,1 µM,,plaque area,0%
O=C(Cc1cc(C2CC2)c(-n2cc(CNC(=O)c3csc(Br)c3)nn2)c(C2CC2)c1)NC1(C(=O)O)CCCCC1,PYR1,"phosphatase activity recovery, antagonist",,"added: HAB1, ABA 5000 nM",,EC50,98 ± 28 nM
O=C(O)CNC(=O)Cc1ccccc1,,,"ventricular cardiomyocytes, C57BL/6 mouse","dose not given, 0.804 s",,sarcomere length,1.68 µm
O=C(Cc1cc(C2CC2)c(-n2cc(CNC(=O)c3cccc(Br)n3)nn2)c(C2CC2)c1)NC1(C(=O)O)CCCCC1,PYR1,"phosphatase activity recovery, antagonist",,"added: HAB1, ABA 5000 nM",,EC50,230 ± 39 nM
CC(C)C[C@H](NC(=O)C[C@H](O)[C@H](CC(C)C)NC(=O)[C@H](Cc1c[nH]cn1)NC(=O)CNC(=O)[C@@H](NC(=O)[C@H](C)NC(=O)[C@H](Cc1c[nH]c2ccccc12)NC(=O)[C@H](CCC(N)=O)NC(=O)[C@@H](Cc1ccccc1)NC(=O)COCCOCCNC(=O)CCC(C(=O)O)N1CCN(CC(=O)O)CCN(CC(=O)O)CC1)C(C)C)C(N)=O (stereo partly shown) [lutetium-177 labelled],,,"female BALB/c nu/nu mice, lung","intravenous, 50 pmol, 1 h",,tissue uptake,0.5 ± 0.2 %ID/g
O=C(Cc1cc(C2CC2)c(-n2cc(CNC(=O)c3ccc(Br)o3)nn2)c(C2CC2)c1)NC1(C(=O)O)CCCCC1,PYR1,"phosphatase activity recovery, antagonist",,"added: HAB1, ABA 5000 nM",,EC50,200 ± 26 nM
Cc1nn2c(N3CCN(CCO)CC3)cc(-c3ccccc3)nc2c1-c1ccccc1,"GTPase KRas, with SOS1 (KRAS, Homo sapiens, UniProt P01116)",SOS-mediated nucleotide exchange,,,,EC50,600 ± 100 nM
Cn1cc(-c2ccc(-c3cncc(Cl)c3N3CCC4(CCNC4=O)CC3)cc2)cn1,COLO 205,"gene expression, microarray, refers to: GADD45B mRNA",,"concentration not given, 2 h",relative to: untreated cells,log2 fold change,2.03
CCOCc1nc(O)c(-c2nnc(Cc3ccc(Cl)cn3)o2)c(O)c1-c1c(OC)cccc1OC,"Apelin receptor (APLNR, Homo sapiens, UniProt P35414)","Gαi3 activation, agonist, BRET biosensor",HEK293,,,EC50,0.46 ± 0.03 nM
COc1cc2c(cc1OC)C(=O)N(CCCCN1CCN(c3ccccc3OC)CC1)C2,DRD2,agonist,,,,EC50,200 nM
Nc1nc2c(ncn2[C@@H]2O[C@@H]3COP(=O)(O)O[C@H]3[C@H]2O)c(=O)[nH]1,"Cone cGMP-gated channel (Morone saxatilis, UniProt Q3I0N1+Q3I0N2)","channel current, agonist, suction electrode","Morone saxatilis, cone outer segments",added: 5 µM Ca2+,,EC50,312000 ± 84700 nM
COc1c(N2C[C@@H]3CCCN[C@@H]3C2)c(F)cc2c(=O)c(C(=O)O)cn(C3CC3)c12,,,"male Hartley guinea pig, anaesthetized","intravenous, 10 mg/kg, baseline before infusion",,QTc interval,304 ± 0.6 ms
Cc1cc(Nc2ccc(S(F)(F)(F)(F)F)cc2)n2nc(C(C)(F)F)nc2n1,Plasmodium vivax,12-lead Holter ECG,human malaria patients,"oral, 400 mg, QTc above 500 ms",,patients with QTcB above threshold,0%
CCn1c(-c2nc3ccc(C(=O)N4CCCC(N)C4)cc3n2C)cc2ccccc21 (stereo not shown),DRD2,"agonist, GTPγS binding",,,,EC50,> 100000 nM
N#Cc1ccc2c(c1)[C@H]1CCCN(C(=O)c3ccc4[nH]cnc4c3)[C@H]1C2,,refers to: FPG,human,"240 mg once daily, day 28, adjusted mean, added: metformin",relative to: placebo,change from baseline,1.6 mg/dL
O=C(Nc1ccn(Cc2ccc(O)cc2C(F)(F)F)n1)c1c(F)cccc1F,"TRPC3 (Homo sapiens, UniProt Q13507)","ion channel activity, agonist",cells overexpressing TRPC3,human receptor,,EC50,> 10000 nM
CC(C)[C@H](NC(=O)[C@H](Cc1ccc(O)cc1)NC(=O)[C@H](Cc1ccc(O)cc1)NC(=O)[C@@H]1CCCN1C(=O)[C@H](CCC(=O)O)NC(=O)[C@H](CCC(=O)O)NC(=O)[C@H](Cc1c[nH]c2ccccc12)NC(=O)[C@@H]1CCCN1C(=O)[C@@H](NC(=O)[C@H](CCC(N)=O)NC(=O)c1ccc2c(c1)C(=O)OC21c2ccc(O)cc2Oc2cc(O)ccc21)C(C)C)C(=O)N[C@H](C(=O)N[C@@H](CCCCN)C(=O)N[C@@H](CCCCN)C(=O)N[C@@H](CO)C(=O)N[C@@H](CO)C(=O)NCC(=O)NCC(N)=O)C(C)C,,,"human, plasma","intravenous infusion, 500 mg, 12 h",,plasma concentration,18.1 ng/mL
O=S(=O)(O)C1CCNCC1,GABA-A receptor; alpha-5/beta-3/gamma-2,"chloride current, agonist, electrophysiology",HEK293 expressing GABAA α5β3γ2,,,EC50,10000 nM
O=C(Cc1cc(C2CC2)c(-n2cc(CNC(=O)c3cccc4c3OC(F)(F)O4)nn2)c(C2CC2)c1)NC1(C(=O)O)CCCCC1,PYR1,"phosphatase activity recovery, antagonist",,"added: HAB1, ABA 5000 nM",,EC50,174 ± 20 nM

# Repeated from above:
Compound,target or system,assay,test system,setting,how to read,measurement,value
O=C(Nc1ccn(Cc2ccc(O)cc2C(F)(F)F)n1)c1c(F)cccc1F,"TRPC3 (Homo sapiens, UniProt Q13507)","ion channel activity, agonist",cells overexpressing TRPC3,human receptor,,EC50,> 10000 nM
CC(C)[C@H](NC(=O)[C@H](Cc1ccc(O)cc1)NC(=O)[C@H](Cc1ccc(O)cc1)NC(=O)[C@@H]1CCCN1C(=O)[C@H](CCC(=O)O)NC(=O)[C@H](CCC(=O)O)NC(=O)[C@H](Cc1c[nH]c2ccccc12)NC(=O)[C@@H]1CCCN1C(=O)[C@@H](NC(=O)[C@H](CCC(N)=O)NC(=O)c1ccc2c(c1)C(=O)OC21c2ccc(O)cc2Oc2cc(O)ccc21)C(C)C)C(=O)N[C@H](C(=O)N[C@@H](CCCCN)C(=O)N[C@@H](CCCCN)C(=O)N[C@@H](CO)C(=O)N[C@@H](CO)C(=O)NCC(=O)NCC(N)=O)C(C)C,,,"human, plasma","intravenous infusion, 500 mg, 12 h",,plasma concentration,18.1 ng/mL
